# Measurements from different studies.
# Parts stem from different laboratories: compare values within a part only.

# Set 1
# Target: RING finger protein unkempt homolog, zinc fingers 1-6, SBP tag (UNK, Homo sapiens, UniProt Q9C0B0, residues 30-357)
# Chain of UniProt Q9C0B0 (30-357, looked up): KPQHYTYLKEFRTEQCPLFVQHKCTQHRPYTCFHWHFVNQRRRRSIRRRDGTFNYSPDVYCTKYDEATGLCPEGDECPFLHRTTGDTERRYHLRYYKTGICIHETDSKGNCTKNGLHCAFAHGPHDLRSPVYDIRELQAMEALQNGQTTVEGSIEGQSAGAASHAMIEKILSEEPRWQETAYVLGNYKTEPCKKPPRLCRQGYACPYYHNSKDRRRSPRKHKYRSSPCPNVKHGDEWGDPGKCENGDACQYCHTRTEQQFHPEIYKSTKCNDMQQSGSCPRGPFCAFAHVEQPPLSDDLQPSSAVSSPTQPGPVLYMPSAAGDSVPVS
# Method: RNA Bind-n-Seq
# Molecule type: RNA
# Sample: in vitro
# Tested at: 100 nM
# Setting: RNA with constant flanks, vertebrate orthologous sites, ends assumed
# Reference: input RNA pool
# Direction: higher = stronger binding
# Constant ends, left off below: GGGAGUUCUACAGUCCGACGAUC … CAACAGAGGAUUGAGCAUCA
Oligonucleotide,bound/input enrichment [ratio]
AUAUUGUAUGUAGAGAAAAAUUUUCAUUGACCCCAUUGUGAAAUUCCCUAGCAAUUUAUUUAGAAUCUUAAUUUUUCUAAUUAAAGCUCACUGUAUUAGUCAUUUUUAGCAUAAUUAAAA,1.81
UCCCAGCACUUUGAUAAAAAGUGUGGACUGGUUGCUUGUAUUUUCUUUAUUCUUUUUAAUUGGUUUUAUUAUGUAUGCUACCAUUCGAAAUGAGAGUAUUAGGUGGCUCAUUCCAGGACA,0.554
GUUAGGUCAUGACCCUUAUAGGCUAGGUCAUGAUGCCUACAGGUUAGGGCAAGACCCCUAUAGAUUAGGCCAUGAUCCCUACAGACUAACUCCUGAUCCCUAUAGGAUGUCACCUAGACC,0.495
AAAUGCGAUGGUCGAAGGCUCUGAGCUCAAAAAGAUUCGAUCCAACUCCAGGGUGUAUCACCGAUACUUUCUUCUAGACGCAGAUAUGCAGUCUCUACGCUGGGAACCUUCAAAAAAGGA,0.188
CAAUGCCAUGGUGGAUGGCUCUGAGCUGAAAAAAGUGCGAUCCAAUUCACGUGUUUACCACCGCUACUUUCUUCUUGACGCCGACAUGCAAUCAUUGAGGUGGGAGCCAACGAAGAAGGA,0.38
UGUUUCUAAUUUCAAGCAAAAAAAAAAAAUCUUAUUGUACUUGAAUGUGUCCUGUUUUGUUAGCACACCUAGACUUGCUGUAACUGUACUCAUGUCCCAGUAUGUACGUUCUUUCUAUGA,0.488
GUUGUGAUCCCUUUAACAUACACAGGAAACUAUCAAAGAAAAACUUGCGAGCAAUUGACUUAGAUGAUGCAGCUUUUCUGAGUGCCAAGUUUGGAAGACAGUUUGUUCCUGGUUGGAAGC,0.821
GAACUAAAGGAGUUAGCAUCUUUAUUUUUGUAUCAAAGAUAAAGAUUAUUUUGAAAUUAUUAAGAUUUUUACACAACUCUGAAAUCUGUUGCUUUUGUAAACAAGUUGUUUAAUCUUAGG,0.583

# Set 2
# Target: Interferon regulatory factor 7, full length, phosphomimetic (IRF7, Homo sapiens, UniProt Q92985, residues 1-503, S471D/S472D/S475D/S476D/S477D/S483D/S484D/S487D)
# Chain of UniProt Q92985 (whole entry, unmodified, looked up): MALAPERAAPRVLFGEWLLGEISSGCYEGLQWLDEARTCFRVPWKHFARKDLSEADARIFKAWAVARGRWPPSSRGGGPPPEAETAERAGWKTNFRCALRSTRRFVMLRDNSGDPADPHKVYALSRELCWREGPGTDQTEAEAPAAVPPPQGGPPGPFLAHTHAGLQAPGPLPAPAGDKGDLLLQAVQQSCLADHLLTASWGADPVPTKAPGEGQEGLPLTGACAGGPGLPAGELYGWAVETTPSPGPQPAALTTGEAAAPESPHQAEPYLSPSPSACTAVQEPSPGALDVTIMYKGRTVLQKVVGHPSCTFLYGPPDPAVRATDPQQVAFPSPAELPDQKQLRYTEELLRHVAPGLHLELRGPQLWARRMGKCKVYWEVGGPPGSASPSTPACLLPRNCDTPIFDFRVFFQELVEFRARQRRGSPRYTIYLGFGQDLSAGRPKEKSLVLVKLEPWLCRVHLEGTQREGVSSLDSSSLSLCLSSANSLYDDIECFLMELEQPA
# Method: protein-binding microarray
# Molecule type: double-stranded DNA, one strand shown
# Sample: in vitro
# Tested at: 2200 nM top
# Setting: 60-bp whole probe
# With: salmon DNA 0.4 mg/ml
# Reference: random background probes
# Direction: higher = stronger binding
# Constant ends, left off below: GCCTAGCAC … GTCTTGATTCGCTTGACGCTGCTG
Oligonucleotide,fitted relative affinity [z-score]
TTAGAACTTGGGACTGGATTAGTGCTA,-0.65
TCATCTCTAACCTCTCTAACTGTGCTA,1.23
GACGGGTTCGGTTTCGGGACGTGCTAG,4.92
GGTCCTTTCTGCCTCAGAGGGTGCTAG,0.732
GACGGTATCGACACGGGGGACGTGCTA,0.212
TTCCTTTCTCTTCCGTTAGCGTGCTAG,4.33
GACGATCTCGGACTGGAGACGTGCTAG,-0.116
TTAGGGATCGGACTGGGTTAGTGCTAG,-0.619
TTAGGTTTCGGTTTCGGTGAGTGCTAG,14.5
GAGACTTTGCTCTGTGCATAGGTGCTA,-0.0557
GGCCAAACAGTATTAAACTCGTGCTAG,-0.146
TTAGGTATCGGACTGGCTTAGTGCTAG,0.0411
TTAGAACTAGGGTATCGATTAGTGCTA,-0.812
TTAGGTTTCGGTCTGGGTTAGTGCTAG,7.3
GACGATATTGGGACTGGAGACGTGCTA,-0.291
CTTTTTAGAAATTTCTTTCTGTGCTAG,0.87
TGTCTTTTCATTTTCTTTAAGTGCTAG,3.18
TTTGGTCTCCTTTTCCTTTAGTGCTAG,2.81
TCACCTCTAGGTTTTCTACTGTGCTAG,1.11

# Set 3
# Target: Ras GTPase-activating protein-binding protein 1, full length (G3BP1, Homo sapiens, UniProt Q13283)
# Chain of UniProt Q13283 (whole entry, looked up): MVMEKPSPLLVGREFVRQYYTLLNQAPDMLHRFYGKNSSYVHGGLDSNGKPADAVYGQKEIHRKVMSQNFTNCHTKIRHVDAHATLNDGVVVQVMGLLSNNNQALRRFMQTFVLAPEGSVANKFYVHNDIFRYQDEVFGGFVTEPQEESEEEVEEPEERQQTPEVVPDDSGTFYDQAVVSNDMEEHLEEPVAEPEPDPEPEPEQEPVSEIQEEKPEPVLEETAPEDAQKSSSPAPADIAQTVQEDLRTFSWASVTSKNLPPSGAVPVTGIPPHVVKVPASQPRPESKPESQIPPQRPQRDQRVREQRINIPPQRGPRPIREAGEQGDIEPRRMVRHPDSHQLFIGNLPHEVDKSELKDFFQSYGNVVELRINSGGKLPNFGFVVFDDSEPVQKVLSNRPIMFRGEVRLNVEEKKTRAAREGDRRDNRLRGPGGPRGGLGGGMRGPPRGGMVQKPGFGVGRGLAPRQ
# Method: RNA Bind-n-Seq
# Molecule type: RNA
# Sample: in vitro
# Tested at: 200 nM
# Setting: whole 134-nt RNA, ends assumed
# With: 150 mM KCl
# Reference: input library
# Direction: higher = stronger binding
# Constant ends, left off below: GGGAGUUCUACAGUCCGACGAUC … UGGAAUUCUCGGGUGUCAAGG
Oligonucleotide,log2 enrichment
CCUCAAGUCCUGUGCUACACAUCGUAUGUACCGAAUCGGGCGGGCGGGCGGGGAAAGUAUUAUGUUACGCCGUUCGGAUCUGCACUUCCA,1.13
CUCAAGUCCUGUGCUACACAUCGUAUGUACCGAAUCGGUUUUUUUGGUGGAGGAAAGUAUUAUGUUACGCCGUUCGGAUCUGCACUUCCA,-0.339
UGGGAGGUGGAUUUUGUUUAUUUAUUUAGCUCAUUUCCAGGGGUGGGAAUUUUUUUUUAAUAUGUGUCAUGAAUAAAGUUGUUUUUGAAA,0.0695
UGGGAGGUGGAUUUUGUUUAUUUUUUUAGCUCAUUUCCAGGGGUGGGAAUUUCUUUUUAAUAUGUGUCAUGAAUAAAGUUGUUUUUGAAA,0.0729
GGAUUGGUAGCUUAUGUCGAUCUUGAUGAAAGAGCAAUUGAUGCUCUCAGGGAAUUUAAUGAAGAAGGAGCUCUGUCUGUACUACAGCAG,-1.7
UUGAACAUCUGCAGGAAAAGAGGCGAGAGGGCACUUUGAGAGUGGAUACCUACACUCUAGUGCAGCCUGAGGCAGAAGACCAUGUUGAGA,-1.04
GUCCUGUGCUACACAUCGUAUGUACCGAAUCGGGGUUUGGGGAAAAAGGGGAAAGGGGAAAGUAUUAUGUUACGCCGUUCGGAUCUGCAC,0.529
UCCUGUGCUACACAUCGUAUGUACCGAAUCGGGUUUUUUUGGGAAAAAAAGGGAAAGGGAAAGUAUUAUGUUACGCCGUUCGGAUCUGCA,-0.401
GGGGAGGUGGAUUUUGUUUAUUUUUUUAGCUCAUUUCCAGGGGUGGGAAUUUUUUUUUAAUAUGUGUCAUGAAUAAAGUUGUUUUUGAAA,0.0497

# Set 4
# Target: Histone acetyltransferase KAT6A, both winged helices, GST fusion (KAT6A, Homo sapiens, UniProt Q92794, residues 1-181)
# Method: protein binding microarray
# Molecule type: double-stranded DNA, one strand shown
# Sample: in vitro
# Tested at: not given
# Setting: 8-mer, flanks averaged, mean of 2 arrays, mostly near background
# Reference: not given
# Direction: higher = stronger binding
# Construct (chain): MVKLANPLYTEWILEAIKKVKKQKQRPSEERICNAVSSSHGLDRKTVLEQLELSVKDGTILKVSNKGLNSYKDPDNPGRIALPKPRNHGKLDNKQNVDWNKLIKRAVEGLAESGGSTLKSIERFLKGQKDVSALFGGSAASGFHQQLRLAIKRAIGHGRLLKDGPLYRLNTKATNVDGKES
Oligonucleotide,E-score
CACGTGAG,-0.0303
ACGCTCGC,0.22
GACTACGA,-0.192
CTGTCCGA,0.145
ATGTAAAT,-0.0668
GGCGCGAA,0.2
CTATTCTA,-0.203
AACCGGGT,0.206
GTTCGTGA,-0.0117
GTACTGAC,0.0816
CTGTCCTA,-0.225
ATCATTGG,-0.321
GATGTGCA,-0.186
TAATATAA,0.0397
CGACTAGC,0.089
CAAACAGC,-0.0868
CAATTCGC,0.112
ATGATAGC,0.159
ATACTGGA,-0.174
AGTTGGCG,0.0652
